Experimental data collected from several papers.
Protocols differ between the studies behind these lines.
Chain of UniProt Q9UBN7 (whole entry, looked up): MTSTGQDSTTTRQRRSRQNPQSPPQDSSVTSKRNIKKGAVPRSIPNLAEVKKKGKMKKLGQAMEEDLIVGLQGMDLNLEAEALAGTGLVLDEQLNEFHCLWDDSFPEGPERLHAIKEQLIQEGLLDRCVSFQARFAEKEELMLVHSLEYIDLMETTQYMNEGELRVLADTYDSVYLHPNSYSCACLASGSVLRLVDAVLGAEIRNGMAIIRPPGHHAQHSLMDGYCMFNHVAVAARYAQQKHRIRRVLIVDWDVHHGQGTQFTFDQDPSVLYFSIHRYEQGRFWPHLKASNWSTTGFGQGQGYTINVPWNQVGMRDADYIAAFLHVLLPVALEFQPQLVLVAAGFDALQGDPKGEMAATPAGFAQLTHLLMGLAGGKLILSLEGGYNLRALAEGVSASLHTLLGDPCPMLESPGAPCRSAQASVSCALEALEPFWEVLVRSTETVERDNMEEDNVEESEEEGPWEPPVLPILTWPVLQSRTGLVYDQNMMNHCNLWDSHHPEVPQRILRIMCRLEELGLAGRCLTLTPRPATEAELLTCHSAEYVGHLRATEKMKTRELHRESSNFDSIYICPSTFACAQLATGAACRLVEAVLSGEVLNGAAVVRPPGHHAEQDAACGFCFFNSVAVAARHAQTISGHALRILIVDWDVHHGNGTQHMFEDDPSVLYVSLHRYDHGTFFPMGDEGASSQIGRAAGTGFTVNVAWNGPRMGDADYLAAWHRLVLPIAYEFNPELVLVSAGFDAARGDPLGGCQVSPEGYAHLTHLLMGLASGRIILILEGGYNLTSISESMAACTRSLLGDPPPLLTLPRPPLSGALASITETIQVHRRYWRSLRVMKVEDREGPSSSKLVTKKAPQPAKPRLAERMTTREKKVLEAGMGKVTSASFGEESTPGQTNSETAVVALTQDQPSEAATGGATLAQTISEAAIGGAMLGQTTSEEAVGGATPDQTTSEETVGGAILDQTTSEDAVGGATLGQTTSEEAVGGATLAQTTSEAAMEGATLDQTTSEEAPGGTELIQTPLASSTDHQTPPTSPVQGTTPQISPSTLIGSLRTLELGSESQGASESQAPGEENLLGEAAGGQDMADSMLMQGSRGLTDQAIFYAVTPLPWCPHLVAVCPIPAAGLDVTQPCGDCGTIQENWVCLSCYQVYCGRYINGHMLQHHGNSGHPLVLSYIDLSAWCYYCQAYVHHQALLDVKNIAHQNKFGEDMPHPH
Chain of UniProt O43318 (whole entry, looked up): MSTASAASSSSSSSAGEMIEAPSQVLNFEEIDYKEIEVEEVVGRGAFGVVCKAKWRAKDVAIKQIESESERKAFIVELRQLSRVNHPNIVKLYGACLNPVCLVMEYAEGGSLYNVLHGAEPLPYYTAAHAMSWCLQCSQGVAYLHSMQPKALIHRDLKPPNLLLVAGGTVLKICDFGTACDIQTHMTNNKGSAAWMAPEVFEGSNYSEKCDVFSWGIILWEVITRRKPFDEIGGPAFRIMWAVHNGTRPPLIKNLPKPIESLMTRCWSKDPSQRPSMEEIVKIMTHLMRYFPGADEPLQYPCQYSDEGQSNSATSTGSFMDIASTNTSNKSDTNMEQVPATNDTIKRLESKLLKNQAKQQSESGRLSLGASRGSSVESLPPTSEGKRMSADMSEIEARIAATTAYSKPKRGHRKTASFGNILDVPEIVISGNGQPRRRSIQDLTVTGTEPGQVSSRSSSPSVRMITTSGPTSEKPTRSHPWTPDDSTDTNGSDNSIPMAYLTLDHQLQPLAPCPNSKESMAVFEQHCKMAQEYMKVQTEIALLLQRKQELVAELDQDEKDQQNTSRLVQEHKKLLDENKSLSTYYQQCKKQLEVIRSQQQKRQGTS
Chain of UniProt P28482 (whole entry, looked up): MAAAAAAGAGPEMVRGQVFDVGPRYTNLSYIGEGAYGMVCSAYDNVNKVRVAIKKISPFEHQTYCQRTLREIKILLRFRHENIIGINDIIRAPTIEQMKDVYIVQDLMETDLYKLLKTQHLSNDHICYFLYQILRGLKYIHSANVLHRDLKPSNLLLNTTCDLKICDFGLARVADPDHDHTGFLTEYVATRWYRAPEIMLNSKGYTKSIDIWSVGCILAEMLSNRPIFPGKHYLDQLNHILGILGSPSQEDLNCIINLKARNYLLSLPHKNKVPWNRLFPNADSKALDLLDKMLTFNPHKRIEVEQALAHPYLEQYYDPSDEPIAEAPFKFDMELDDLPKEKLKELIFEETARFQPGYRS
Chain of UniProt P04629 (whole entry, looked up): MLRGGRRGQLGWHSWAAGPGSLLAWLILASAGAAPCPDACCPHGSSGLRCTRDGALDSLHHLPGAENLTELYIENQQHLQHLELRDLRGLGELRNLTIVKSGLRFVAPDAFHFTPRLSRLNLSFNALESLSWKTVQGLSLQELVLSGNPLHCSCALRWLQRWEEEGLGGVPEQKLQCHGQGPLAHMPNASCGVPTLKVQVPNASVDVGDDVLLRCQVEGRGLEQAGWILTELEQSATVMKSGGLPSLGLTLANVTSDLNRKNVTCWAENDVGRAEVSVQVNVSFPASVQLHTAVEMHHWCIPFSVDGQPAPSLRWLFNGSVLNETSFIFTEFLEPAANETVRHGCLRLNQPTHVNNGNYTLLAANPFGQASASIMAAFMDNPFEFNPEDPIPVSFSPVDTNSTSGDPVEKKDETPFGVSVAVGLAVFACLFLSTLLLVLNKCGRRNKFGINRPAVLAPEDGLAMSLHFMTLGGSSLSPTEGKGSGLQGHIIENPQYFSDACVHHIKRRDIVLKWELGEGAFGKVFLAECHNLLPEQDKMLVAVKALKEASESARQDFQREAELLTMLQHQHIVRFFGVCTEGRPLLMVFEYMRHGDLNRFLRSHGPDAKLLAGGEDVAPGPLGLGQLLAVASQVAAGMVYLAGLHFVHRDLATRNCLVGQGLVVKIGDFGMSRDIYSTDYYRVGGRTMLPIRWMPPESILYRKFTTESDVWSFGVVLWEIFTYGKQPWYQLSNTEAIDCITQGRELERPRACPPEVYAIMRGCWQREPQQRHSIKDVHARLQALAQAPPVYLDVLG

SMILES | tested on | test | test system | setting | quantity | result
c1ccc(-c2nc(N3CCCC3c3ccccn3)c3ccccc3n2)nc1 (stereo not drawn) | – | metabolic stability | mouse, liver microsomes | – | microsomal CLint | 227 µL/min/mg
CC[C@@](N)(c1cnc(C(F)(F)F)c(Cl)c1)c1c2ccn(C3CC3)c(=O)c2nn1C | – | metabolic stability | human, hepatocytes | 0.5 µM, pH 7.4 | hepatocyte CLint | 0.8 µL/min/10⁶ cells
COc1ccc([C@@H](O)c2cc(-c3ncnc4cc(N5CCOCC5)ccc34)c(F)cc2Cl)nn1 | – | – | human, plasma | oral, 200 mg, multiple doses, once daily, patients | Cmax | 1420 ng/mL
c1ccc(-c2nc(N3CCC(c4ccccn4)C3)c3ccccc3n2)cc1 (stereo not drawn) | – | metabolic stability | mouse, liver microsomes | – | microsomal CLint | 604 µL/min/mg
COCC(=O)N1CCC[C@H](C(=O)NCc2nc(-c3ccc(-c4cccnc4)cc3)cs2)C1 | – | metabolic stability | human, liver microsomes | 0.5 µM | microsomal CLint | 55 µL/min/mg
N=C(N)c1cccc(OCCCCCOc2cccc(C(=N)N)c2)c1 | – | haemolysis | sheep | 200 µg/mL, 20 h | haemolysis | 0.1%
COc1cc(OC)c2nccc(N3CCc4c(cc(Cn5ccnc5)cc4-c4cn(C)nc4C(F)(F)F)C3=O)c2c1 | – | – | male CD-1 mouse, plasma | oral, 50 mg/kg | MRT(0-inf) | 2 h
CC(=O)CC(c1ccccc1)c1c(O)c2ccccc2oc1=O (stereo not drawn) | – | metabolic stability | Sprague-Dawley rat, hepatocytes | 0.5 µM, pH 7.4 | hepatocyte CLint | 2.6 µL/min/10⁶ cells
N=C(N)c1ccc(OCCCOc2ccc(C(=N)N)cc2)cc1 | – | haemolysis | sheep | 200 µg/mL, 1 h | haemolysis | 0.4%
N#C[C@@]1(c2ccc3c(N)ncnn23)O[C@H](CO)[C@@H](O)[C@H]1O | – | – | monkey, plasma | – | fraction unbound | 0.819
O=C1CC[C@H](N2Cc3cc(N4CCN(CC5CCN(c6ccc([C@@H]7c8ccc(O)cc8CC[C@@H]7c7ccccc7)cc6)CC5)CC4)ccc3C2=O)C(=O)N1 | – | – | male Sprague-Dawley rat, plasma | oral, 20 mg/kg, fed | MRT(0-inf) | 9.12 h
CC(C)[N+](C)(CCOC(=O)C1c2ccccc2Oc2ccccc21)C(C)C | – | metabolic stability | human, plasma | 2 h | compound remaining | 2.01%
O=C1c2ccncc2C(=O)c2c1[nH]c1ccccc21 | – | – | rat, plasma | intravenous, 5 mg/kg, single dose | Cmax | 3.43 µM
O=C(Nc1ccc(CN2CCOCC2)c(C(F)(F)F)c1)c1ccc(C#Cc2cccc3cnccc23)cn1 | – | – | Caco-2 | – | Papp B→A | 0.699 ×10⁻⁶ cm/s
O=C(COc1ccc(Cl)cc1)NC12CC(c3nnc([C@H]4C[C@@H](OC(F)(F)F)C4)o3)(C1)C2 | – | – | human, plasma | oral, 45 mg, multiple doses, once daily, steady state, healthy volunteers | Cmax | 2.59 µM
N=C(N)c1ccccc1OCCCCCOc1ccccc1C(=N)N | – | haemolysis | sheep | 200 µg/mL, 1 h | haemolysis | 0%
COc1ccc(NC(=O)Nc2ccc3c(c2)S(=O)(=O)C=C3)cc1 | – | – | PAMPA-BBB | pH 7.4 | Papp | 19.4 ×10⁻⁶ cm/s
CC(C)n1c(Nc2cccnc2)nc2cnc(Nc3ccc(N4CCN(C)CC4)cc3)nc21 | – | – | male human, plasma | oral, 150 mg, single dose | AUC(0-inf) | 1410 ng·h/mL
COc1ccc(Oc2ccc3c(=O)c4c(F)cc(Cl)cc4[nH]c3c2)cc1 | – | metabolic stability | mouse, liver microsomes | 1 µM, pH 7.4 | microsomal CLint | 15.1 µL/min/mg
C=CC(=O)N1CCC(COCC(=O)N2CCN(c3nc(-c4cnc(N)nc4C(F)F)nc(N4CCOC[C@@H]4C)n3)CC2)CC1 | Mitogen-activated protein kinase kinase kinase 7 (MAP3K7, Homo sapiens, UniProt O43318) | binding, competition with immobilised ligand | – | 1 µM | remaining binding | 98%
O=c1c2c([nH]c3cc(Oc4cccc(OC(F)(F)F)c4)ccc13)CCCC2 | – | metabolic stability | mouse, liver microsomes | 1 µM, pH 7.4 | microsomal CLint | 0.99 µL/min/mg
CC(C)Oc1c(NC(=O)c2ccc(NC(=O)[C@H](CC(N)=O)NC(=O)c3ccc(NC(=O)c4ccc(C#N)cc4)cc3)cc2)ccc(C(=O)Nc2ccc(C(=O)O)cc2)c1O | – | – | male CD-1 mouse, plasma | subcutaneous, 5 mg/kg, single dose | MRT | 3.13 h
Cc1ccc(S(=O)(=O)n2cc3c4c2C(=O)C(NCc2ccc(Cl)cc2)=CC4=NCC3)cc1 | – | – | rat, plasma | intravenous, 5 mg/kg, single dose | AUC(0-inf) | 1860 ng·h/mL
COc1ccc2[nH]c([S+]([O-])Cc3ncc(C)c(OC)c3C)nc2c1 (stereo not drawn) | – | metabolic stability | human, hepatocytes | 0.5 µM, pH 7.4 | hepatocyte CLint | 18.4 µL/min/10⁶ cells

SMILES | tested on | test | test system | setting | quantity | result
N=C(N)c1ccc(OCCCCCCCOc2ccc(C(=N)N)cc2)cc1 | – | haemolysis | sheep | 200 µg/mL, 1 h | haemolysis | 0.3%
COc1ccc([C@@H]2Sc3ccccc3N(CCN(C)C)C(=O)[C@@H]2OC(C)=O)cc1 | – | metabolic stability | Sprague-Dawley rat, hepatocytes | 0.5 µM, pH 7.4 | hepatocyte CLint | 250 µL/min/10⁶ cells
N#C[C@@]12C[C@@H]1[C@@H](n1cnc3c(N[C@@H](C4CCC4)C4CC4)nc(I)nc31)[C@H](O)[C@@H]2O | – | – | male Wistar rat, plasma | oral, 3 mg/kg | Cmax | 23.5 ng/mL
c1ccc(-c2nc(N3CCc4cccnc4C3)c3ccccc3n2)nc1 | – | – | PAMPA | 10 µM, 3 h, pH 7.4 | Papp | 22.5 ×10⁻⁶ cm/s
CCn1ccc2c([C@](O)(c3ccc(C(F)(F)F)nc3)C3CC3)n(C)nc2c1=O | – | metabolic stability | human, hepatocytes | 0.5 µM, pH 7.4 | hepatocyte CLint | 1.8 µL/min/10⁶ cells
COc1cc(C(=O)NC2CCN(C)CC2)c(F)cc1Nc1ncc(C(F)(F)F)c(Oc2cccc3c2C(=O)N(C)C3)n1 | – | – | human, plasma | oral, 50 mg, multiple doses, once daily, patients | CL/F | 290 mL/min
CNc1ncc2c(/C=C/C(=O)N3CCC(OC)CC3)nn(Cc3cccc(C(F)(F)F)c3)c2n1 | Mitogen-activated protein kinase 1 (MAPK1, Homo sapiens, UniProt P28482) | enzyme activity, inhibitor, radiometric | – | 1 µM | remaining activity | 88%
N#CC1CCN(c2nc(-c3ccccn3)nc3ccccc23)C1 (stereo not drawn) | – | – | PAMPA | 10 µM, 3 h, pH 7.4 | Papp | 15.3 ×10⁻⁶ cm/s
O=C(/C=C/c1cccc(OS(=O)(=O)Oc2ccccc2)c1)NO | Protein deacetylase HDAC6 (HDAC6, Homo sapiens, UniProt Q9UBN7) | enzyme activity, inhibitor, fluorescence | – | – | IC50 | 614 nM
Cc1cc(NC(=O)c2cccc(NC(=O)/C=C/CN(C)C)c2)ccc1Nc1nccc(-c2cccnc2)n1 | – | metabolic stability | male Wistar rat, hepatocytes | 1 µM | scaled CLint | 18.5 mL/min/kg
Cn1nc2c(=O)n(C3CC3)cnc2c1[C@](O)(c1cnc(C(F)(F)F)c(Cl)c1)C(F)(F)F | – | – | Caco-2 | – | Papp B→A | 85 ×10⁻⁶ cm/s
COc1cc(-c2cncc3c2CN(C)Cc2cc(N4CCNCC4)ccc2-3)cc(OC)c1OC | High affinity nerve growth factor receptor (NTRK1, Homo sapiens, UniProt P04629) | enzyme activity, inhibitor | – | 1 µM | remaining activity | 117%
O=C(c1ccc(F)cc1)C1CCN(CCn2c(=O)[nH]c3ccccc3c2=O)CC1 | – | metabolic stability | dog, liver microsomes | 1 h | compound remaining | 43.5%
CC(=Nc1ccc(N=Cc2cnccn2)cc1)N(C)C | – | – | male Sprague-Dawley rat, plasma | intravenous, 20 mg/kg | Cmax | 400 ng/mL
NCc1cc2c(cc1F)C(=O)N(C1CCC(=O)NC1=O)C2 (stereo not drawn) | – | – | male cynomolgus monkey, plasma | oral, 0.3 mg/kg, 8 h | concentration | 0.15 ng/mL
N#Cc1ccc(-c2csc(CNC(=O)[C@H]3CCCN(C(=O)COCCF)C3)n2)cc1 | – | metabolic stability | human, liver microsomes | 0.5 µM | microsomal CLint | 29 µL/min/mg
COc1ccc2c(c1)CN(C(=O)CCN1CCC(Cc3ccccc3)CC1)CC[S@@+]2[O-] | – | – | male human, plasma | intravenous, 0.4 mg/kg, healthy volunteers | AUC(0-inf) | 2470 ng·h/mL
CCN1CCN(Cc2ccc(NC(=O)c3ccc(C)c(NC(=O)c4cncc(-c5cccs5)c4)c3)cc2C(F)(F)F)CC1 | – | – | mouse, plasma | intraperitoneal, 10 mg/kg, single dose | MRT | 2.76 h
CCOC(=O)[C@@]12C[C@@H]1[C@@H](n1ccc3c(NC)nc(C#Cc4ccc(Cl)s4)nc31)[C@H](O)[C@@H]2O | – | – | male Sprague-Dawley rat, plasma | oral, 10 mg/kg, 2 h | concentration | 79 ng/mL
COc1cccc(-c2n[nH]c(SCc3ccccn3)n2)c1OC | – | – | male Sprague-Dawley rat, plasma | oral, 100 mg/kg, 1 h, single dose | concentration | 52100 ng/mL
CCn1cnc2c(N3CCC(c4ccccn4)C3)nc(-c3ccccn3)nc21 (stereo not drawn) | – | metabolic stability | mouse, liver microsomes | – | microsomal CLint | 44 µL/min/mg
COc1ccc2c(=O)n(C)c(-c3ccccc3)nc2c1 | – | – | male Sprague-Dawley rat, plasma | oral, 30 mg/kg, 4 h | concentration | 5.95 ng/mL
c1ccc(-c2nc(N3CCCCCC3)c3ccccc3n2)nc1 | – | metabolic stability | mouse, liver microsomes | – | microsomal CLint | 413 µL/min/mg
C#C[C@]1(CO)O[C@@H](n2cnc3c(N)nc(F)nc32)C[C@@H]1O | – | – | monkey, plasma | oral, 75 mg/kg | AUC(0-t) | 222 µM·h

A few entries again:
SMILES | tested on | test | test system | setting | quantity | result
N#C[C@@]1(c2ccc3c(N)ncnn23)O[C@H](CO)[C@@H](O)[C@H]1O | – | – | monkey, plasma | – | fraction unbound | 0.819
O=C1CC[C@H](N2Cc3cc(N4CCN(CC5CCN(c6ccc([C@@H]7c8ccc(O)cc8CC[C@@H]7c7ccccc7)cc6)CC5)CC4)ccc3C2=O)C(=O)N1 | – | – | male Sprague-Dawley rat, plasma | oral, 20 mg/kg, fed | MRT(0-inf) | 9.12 h
CC(C)[N+](C)(CCOC(=O)C1c2ccccc2Oc2ccccc21)C(C)C | – | metabolic stability | human, plasma | 2 h | compound remaining | 2.01%
O=C1c2ccncc2C(=O)c2c1[nH]c1ccccc21 | – | – | rat, plasma | intravenous, 5 mg/kg, single dose | Cmax | 3.43 µM
O=C(Nc1ccc(CN2CCOCC2)c(C(F)(F)F)c1)c1ccc(C#Cc2cccc3cnccc23)cn1 | – | – | Caco-2 | – | Papp B→A | 0.699 ×10⁻⁶ cm/s
O=C(COc1ccc(Cl)cc1)NC12CC(c3nnc([C@H]4C[C@@H](OC(F)(F)F)C4)o3)(C1)C2 | – | – | human, plasma | oral, 45 mg, multiple doses, once daily, steady state, healthy volunteers | Cmax | 2.59 µM
